Published values of several laboratories.
Protocols differ between the studies behind these lines. Values joined by “and” are separate records of one study, mostly repeats; a detail may differ.
Target: Ephrin type-A receptor 5 (EPHA5, Homo sapiens, UniProt P54756)

SMILES	test	setting	how to read	quantity	value
CN1CCN(Cc2ccc(-c3ccc(CO[C@H]4CCC[C@@H]4NC(=O)c4cc(-c5cnn(C)c5)cnc4N)cc3)cc2)CC1	enzyme activity, inhibitor	0.1 µM	–	inhibition	5%
CN1CC[C@@H](COc2cnc(C#N)cc2-c2ccn3nc(NC(=O)C4CC4)cc3c2)C1	enzyme activity, inhibitor	1 µM	–	inhibition	10%
COc1cc(Nc2nccc(-c3cnn4nc(OC)ccc34)n2)cc(C(F)(F)F)c1	binding, competition with immobilised ligand	1 µM	–	remaining binding	75%
Cc1cnc2nc1Nc1cccc(c1)COC/C=C/COCc1cc(ccc1OCCN1CCOCC1)N2	–	concentration not given	–	percent of control	100%
CCn1cc(C(=O)O)c(=O)c2c(N)c(F)c(NC3CCCCC3)cc21	kinase activity	0.1 µM, added: ATP at Km	–	inhibition	7.6%
O=C=[N][Ru-4]123([n]4c5ccc(O)cc5c5c6c(c7cc(F)c[n+]1c7c54)C(=O)NC6=O)[S+]1CC[S+]2CC[S+]3CC1 (centres unmarked)	enzyme activity	100 nM, human enzyme, added: 10 µM ATP	reference: untreated	remaining activity	124%
C=CC(=O)Nc1cccc(-c2cnc3[nH]cc(C(=O)NC(C)(C)C)c3n2)c1	kinase activity	0.1 µM	–	inhibition	0% and 1%
COc1ccc(NC(=O)Nc2ccc3c(c2)C(=O)N(C(C)CO)CC(C)C(CN(C)Cc2ccc4c(c2)OCO4)O3)cc1 (centres unmarked)	kinase activity, KinaseProfiler	0.03 µM, species human	reference: control	remaining activity	91%
COc1c(Cl)cccc1Nc1c(-c2ccncc2C#C[C@@]2(C)CCCN2C(=O)/C=C/CN(C)C)[nH]c2c1C(=O)NCC2	cell-free assay, competition with immobilised ligand	3 µM	–	remaining binding	98%
O=C(Nc1ccc(Oc2ncnc3[nH]cc(-c4ccccc4)c23)c(F)c1)c1c2n(n(-c3cc(F)ccc3F)c1=O)CCCC2	enzyme activity, inhibitor	0.5 µM	–	inhibition	7%
CCN1CCN(Cc2ccc(C(=O)Nc3ccc(C)c(NCc4cnc5[nH]ccc5c4OC)c3)cc2C(F)(F)F)CC1	binding, competition with immobilised ligand	1 µM	–	remaining binding	9.8%
C=CC(=O)N1CCCC(n2c(=O)c3ncccc3n(Cc3ccc(Oc4ccccc4)cc3)c2=O)C1 (centres unmarked)	cell-free assay, competition with immobilised ligand	1 µM	–	remaining binding	86%
CC(C)=CC1OC(C)(C)C2C=C3C(=O)C(Cl)=CC(O)C3C3C(O)C4OC4C(=O)C132 (centres unmarked)	cell-free assay, competition with immobilised ligand	10 µM	–	remaining binding	86%
Cc1ccc(-c2c(/C=C(\C#N)C(=O)NC(C)C)n(CCCO)c3ncnc(N)c23)cc1	cell-free assay, competition with immobilised ligand	1 µM	–	remaining binding	99%
NC(=O)C[C@H]1CCc2sc3ncnc(O[C@H]4CC[C@H](N5CCOCC5)CC4)c3c21	enzyme activity, inhibitor	10 µM	–	inhibition	4%
Cc1nc2c(F)cc(-c3nc(Nc4ccc(CNC(=O)CCCCCCC(=O)NO)cc4)ncc3F)cc2n1C(C)C	enzyme activity, inhibitor	1 µM	–	inhibition	55%
Cc1cccc(O[C@H]2CCC[C@@H](C(C)CNCc3ccncc3)C2)c1 (relative stereo)	kinase activity, kinome panel screening	10 µM	–	inhibition	-7%

Excerpt of the above:
SMILES	test	setting	how to read	quantity	value
C=CC(=O)Nc1cccc(-c2cnc3[nH]cc(C(=O)NC(C)(C)C)c3n2)c1	kinase activity	0.1 µM	–	inhibition	0% and 1%
COc1ccc(NC(=O)Nc2ccc3c(c2)C(=O)N(C(C)CO)CC(C)C(CN(C)Cc2ccc4c(c2)OCO4)O3)cc1 (centres unmarked)	kinase activity, KinaseProfiler	0.03 µM, species human	reference: control	remaining activity	91%
